Measurements of several laboratories.
Each numbered part is a random draw from the data of one study; scales do not carry over between parts.
Chain of UniProt P10721 (whole entry, unmodified, looked up): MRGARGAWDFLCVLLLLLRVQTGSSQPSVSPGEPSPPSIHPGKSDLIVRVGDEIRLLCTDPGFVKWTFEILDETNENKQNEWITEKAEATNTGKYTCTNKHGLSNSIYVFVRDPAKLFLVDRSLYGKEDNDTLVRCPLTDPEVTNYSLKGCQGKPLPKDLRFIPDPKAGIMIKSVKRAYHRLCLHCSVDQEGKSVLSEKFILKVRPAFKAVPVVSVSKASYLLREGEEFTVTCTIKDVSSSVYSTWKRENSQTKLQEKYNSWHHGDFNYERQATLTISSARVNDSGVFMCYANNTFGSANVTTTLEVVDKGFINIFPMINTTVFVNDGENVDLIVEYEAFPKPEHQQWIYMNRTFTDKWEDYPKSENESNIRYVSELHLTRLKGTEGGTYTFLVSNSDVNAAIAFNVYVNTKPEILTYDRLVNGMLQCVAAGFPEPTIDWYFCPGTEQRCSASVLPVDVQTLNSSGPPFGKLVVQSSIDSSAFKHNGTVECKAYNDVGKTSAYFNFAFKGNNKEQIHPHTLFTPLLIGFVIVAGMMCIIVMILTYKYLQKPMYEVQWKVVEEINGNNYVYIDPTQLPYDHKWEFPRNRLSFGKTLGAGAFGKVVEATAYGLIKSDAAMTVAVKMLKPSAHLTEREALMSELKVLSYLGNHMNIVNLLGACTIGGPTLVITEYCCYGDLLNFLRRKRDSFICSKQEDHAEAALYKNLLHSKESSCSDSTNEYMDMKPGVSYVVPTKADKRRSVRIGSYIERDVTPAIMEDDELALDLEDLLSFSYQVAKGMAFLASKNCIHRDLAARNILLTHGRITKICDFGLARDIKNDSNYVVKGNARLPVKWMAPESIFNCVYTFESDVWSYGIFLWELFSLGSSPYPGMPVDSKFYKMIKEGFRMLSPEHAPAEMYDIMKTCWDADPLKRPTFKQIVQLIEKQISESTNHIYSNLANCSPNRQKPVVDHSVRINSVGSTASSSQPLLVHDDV
Chain of UniProt Q13554 (whole entry, looked up): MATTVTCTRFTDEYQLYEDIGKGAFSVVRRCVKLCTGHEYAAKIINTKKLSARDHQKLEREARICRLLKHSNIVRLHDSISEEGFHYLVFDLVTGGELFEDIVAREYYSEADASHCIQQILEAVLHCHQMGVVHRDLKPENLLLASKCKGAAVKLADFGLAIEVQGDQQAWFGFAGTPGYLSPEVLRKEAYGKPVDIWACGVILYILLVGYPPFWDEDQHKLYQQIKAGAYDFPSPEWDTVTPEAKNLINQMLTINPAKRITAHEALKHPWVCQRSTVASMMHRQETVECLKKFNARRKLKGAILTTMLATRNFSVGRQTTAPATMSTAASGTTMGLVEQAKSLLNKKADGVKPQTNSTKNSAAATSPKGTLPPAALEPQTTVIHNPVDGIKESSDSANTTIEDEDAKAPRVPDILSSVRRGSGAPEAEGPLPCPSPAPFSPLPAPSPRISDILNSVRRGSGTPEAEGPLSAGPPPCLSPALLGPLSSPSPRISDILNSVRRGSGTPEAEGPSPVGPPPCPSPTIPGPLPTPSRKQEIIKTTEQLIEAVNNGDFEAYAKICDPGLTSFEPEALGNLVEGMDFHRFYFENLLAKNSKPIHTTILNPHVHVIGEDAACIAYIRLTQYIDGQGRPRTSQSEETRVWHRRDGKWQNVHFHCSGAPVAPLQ
Chain of UniProt Q9H2X6 (whole entry, looked up): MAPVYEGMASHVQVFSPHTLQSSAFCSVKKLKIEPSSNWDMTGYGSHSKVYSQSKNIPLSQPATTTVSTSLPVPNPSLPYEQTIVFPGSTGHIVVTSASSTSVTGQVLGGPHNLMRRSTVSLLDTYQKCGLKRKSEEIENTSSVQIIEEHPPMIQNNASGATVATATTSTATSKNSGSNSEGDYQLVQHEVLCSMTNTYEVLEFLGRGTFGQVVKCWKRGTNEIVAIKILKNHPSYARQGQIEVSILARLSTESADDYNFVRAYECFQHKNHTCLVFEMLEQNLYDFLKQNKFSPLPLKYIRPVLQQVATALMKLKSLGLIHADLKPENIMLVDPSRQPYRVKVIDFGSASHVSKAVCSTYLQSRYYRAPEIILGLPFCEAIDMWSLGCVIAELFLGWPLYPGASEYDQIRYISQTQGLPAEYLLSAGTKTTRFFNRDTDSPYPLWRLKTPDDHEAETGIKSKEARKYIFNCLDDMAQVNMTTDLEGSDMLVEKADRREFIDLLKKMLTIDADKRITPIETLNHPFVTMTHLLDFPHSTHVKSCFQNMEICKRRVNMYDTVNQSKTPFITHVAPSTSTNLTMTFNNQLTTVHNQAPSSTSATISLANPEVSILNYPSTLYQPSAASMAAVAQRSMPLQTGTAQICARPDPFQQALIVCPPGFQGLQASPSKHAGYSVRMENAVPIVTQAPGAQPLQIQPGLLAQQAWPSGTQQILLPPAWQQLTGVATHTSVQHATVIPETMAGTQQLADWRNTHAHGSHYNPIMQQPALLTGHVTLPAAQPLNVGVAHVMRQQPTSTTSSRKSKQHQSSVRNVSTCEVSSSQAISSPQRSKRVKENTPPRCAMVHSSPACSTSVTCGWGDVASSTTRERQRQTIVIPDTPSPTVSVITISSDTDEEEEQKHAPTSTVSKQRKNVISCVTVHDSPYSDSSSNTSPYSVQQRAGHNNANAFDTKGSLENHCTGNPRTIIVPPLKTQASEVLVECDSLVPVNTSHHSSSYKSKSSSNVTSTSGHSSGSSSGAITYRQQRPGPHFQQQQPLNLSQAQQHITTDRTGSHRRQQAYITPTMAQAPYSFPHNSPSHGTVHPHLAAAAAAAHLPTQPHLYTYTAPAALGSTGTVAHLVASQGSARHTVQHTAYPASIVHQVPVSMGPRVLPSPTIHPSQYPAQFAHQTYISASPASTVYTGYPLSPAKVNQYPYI
Chain of UniProt Q9UIK4 (whole entry, looked up): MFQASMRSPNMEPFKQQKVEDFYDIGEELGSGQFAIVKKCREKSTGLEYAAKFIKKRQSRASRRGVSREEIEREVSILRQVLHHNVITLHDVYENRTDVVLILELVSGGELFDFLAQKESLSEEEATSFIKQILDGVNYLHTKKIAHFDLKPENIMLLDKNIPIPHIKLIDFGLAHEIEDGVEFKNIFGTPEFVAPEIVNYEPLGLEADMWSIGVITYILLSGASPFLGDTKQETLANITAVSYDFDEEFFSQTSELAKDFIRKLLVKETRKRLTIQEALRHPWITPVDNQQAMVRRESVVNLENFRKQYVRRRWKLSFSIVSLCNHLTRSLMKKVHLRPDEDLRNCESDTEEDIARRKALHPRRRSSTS
Chain of UniProt Q16816 (whole entry, looked up): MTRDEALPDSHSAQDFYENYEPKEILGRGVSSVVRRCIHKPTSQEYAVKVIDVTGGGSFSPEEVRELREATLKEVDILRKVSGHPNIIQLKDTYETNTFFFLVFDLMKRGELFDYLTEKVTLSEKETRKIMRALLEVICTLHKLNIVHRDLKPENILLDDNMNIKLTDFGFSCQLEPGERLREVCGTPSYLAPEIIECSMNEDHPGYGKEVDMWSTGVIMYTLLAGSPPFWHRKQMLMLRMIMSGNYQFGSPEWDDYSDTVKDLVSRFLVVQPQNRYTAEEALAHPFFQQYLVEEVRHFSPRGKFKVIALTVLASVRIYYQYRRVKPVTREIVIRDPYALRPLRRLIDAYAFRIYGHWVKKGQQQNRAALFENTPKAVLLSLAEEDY
Chain of UniProt Q96PF2 (whole entry, looked up): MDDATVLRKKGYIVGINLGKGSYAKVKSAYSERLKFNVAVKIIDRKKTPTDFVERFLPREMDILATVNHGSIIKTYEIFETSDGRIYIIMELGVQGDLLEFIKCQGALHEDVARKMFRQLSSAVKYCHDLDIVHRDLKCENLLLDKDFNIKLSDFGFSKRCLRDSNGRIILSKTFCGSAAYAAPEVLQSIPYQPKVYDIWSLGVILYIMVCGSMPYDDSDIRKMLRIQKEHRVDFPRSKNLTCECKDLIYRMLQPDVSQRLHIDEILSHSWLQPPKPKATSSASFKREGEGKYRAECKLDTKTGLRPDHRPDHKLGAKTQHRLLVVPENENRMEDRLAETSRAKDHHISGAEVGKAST
Chain of UniProt P07949 (whole entry, unmodified, looked up): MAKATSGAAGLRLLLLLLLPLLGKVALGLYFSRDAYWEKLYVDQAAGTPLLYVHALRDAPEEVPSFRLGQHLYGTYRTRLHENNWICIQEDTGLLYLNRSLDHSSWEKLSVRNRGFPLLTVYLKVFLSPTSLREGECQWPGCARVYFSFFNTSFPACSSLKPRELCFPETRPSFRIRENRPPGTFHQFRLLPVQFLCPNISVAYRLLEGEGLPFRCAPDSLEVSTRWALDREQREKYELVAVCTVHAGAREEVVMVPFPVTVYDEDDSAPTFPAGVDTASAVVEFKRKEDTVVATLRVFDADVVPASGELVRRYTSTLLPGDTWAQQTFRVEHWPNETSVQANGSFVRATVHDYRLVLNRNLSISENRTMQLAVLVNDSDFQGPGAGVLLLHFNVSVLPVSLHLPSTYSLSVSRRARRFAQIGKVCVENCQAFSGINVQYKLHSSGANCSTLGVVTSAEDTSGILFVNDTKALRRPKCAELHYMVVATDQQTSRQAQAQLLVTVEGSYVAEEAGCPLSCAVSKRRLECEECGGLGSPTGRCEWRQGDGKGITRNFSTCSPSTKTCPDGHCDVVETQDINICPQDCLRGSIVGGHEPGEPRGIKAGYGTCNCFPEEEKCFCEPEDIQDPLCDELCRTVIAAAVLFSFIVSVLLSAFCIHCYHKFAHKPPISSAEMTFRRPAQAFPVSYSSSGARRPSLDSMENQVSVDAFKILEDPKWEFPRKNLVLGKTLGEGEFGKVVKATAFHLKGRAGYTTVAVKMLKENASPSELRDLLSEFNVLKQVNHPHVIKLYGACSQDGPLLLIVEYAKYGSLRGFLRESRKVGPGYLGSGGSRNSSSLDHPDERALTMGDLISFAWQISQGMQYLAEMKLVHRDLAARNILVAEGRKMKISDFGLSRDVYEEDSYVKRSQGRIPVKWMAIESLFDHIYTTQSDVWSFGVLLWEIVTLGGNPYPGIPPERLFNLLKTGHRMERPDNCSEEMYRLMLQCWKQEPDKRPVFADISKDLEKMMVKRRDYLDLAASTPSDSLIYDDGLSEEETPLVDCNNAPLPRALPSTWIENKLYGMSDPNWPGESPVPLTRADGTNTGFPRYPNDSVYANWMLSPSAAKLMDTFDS

Sample 1 — cell line: A-375; tested at: 100 µM; time: 18 h
| Structure (SMILES) | viability [%] |
| --- | --- |
| CCOC(=O)CCC(=O)O[C@H]1[C@H](O[C@@H]2[C@@H](C)[C@H](O[C@H]3C[C@@](C)(OC)[C@@H](O)[C@H](C)O3)[C@@H](C)C(=O)O[C@H](CC)[C@@](C)(O)[C@H](O)[C@@H](C)C(=O)[C@H](C)C[C@@]2(C)O)O[C@H](C)C[C@@H]1N(C)C | 96.9 |
| CCN(CC)CCNC(=O)c1cc(S(C)(=O)=O)ccc1OC | 90.9 |
| C=CC1=C(C(=O)O)N2C(=O)[C@@H](NC(=O)/C(=N\O)c3csc(N)n3)[C@H]2SC1 | 102 |
| CCn1cc(C(=O)O)c(=O)c2cc3c(cc21)OCO3 | 110 |
| O=C1C(CC[S+]([O-])c2ccccc2)C(=O)N(c2ccccc2)N1c1ccccc1 (stereo not shown) | 89.1 |
| CC(=O)Nc1ncc([N+](=O)[O-])s1 | 93.5 |
| COc1ccc(-c2coc3cc(O)ccc3c2=O)cc1 | 91.1 |

Sample 2 — method: competition with immobilised ligand; tested at: 1 µM
Structure (SMILES): C[C@H](c1cccc(C#N)c1)n1cc(Cl)cc(C(N)=O)c1=N
| target | assay | remaining binding [%] |
| --- | --- | --- |
| Tyrosine-protein kinase ABL1, non-phosphorylated (ABL1, Homo sapiens, UniProt P00519, F317I) | binding | 85 |
| Proto-oncogene tyrosine-protein kinase receptor Ret (RET, Homo sapiens, UniProt P07949, V804L) | cell-free assay | 87 |
| Serine/threonine-protein kinase tousled-like 1 (TLK1, Homo sapiens, UniProt Q9UKI8) | cell-free assay | 94 |
| Mast/stem cell growth factor receptor Kit (KIT, Homo sapiens, UniProt P10721, T670I/V559D) | cell-free assay | 100 |
| Serine/threonine-protein kinase pim-1 (PIM1, Homo sapiens, UniProt P11309) | cell-free assay | 100 |
| TRAF2 and NCK-interacting protein kinase (TNIK, Homo sapiens, UniProt Q9UKE5) | cell-free assay | 100 |
| Mast/stem cell growth factor receptor Kit (KIT, Homo sapiens, UniProt P10721, L576P) | cell-free assay | 93 |
| cAMP-dependent protein kinase catalytic subunit beta (PRKACB, Homo sapiens, UniProt P22694) | cell-free assay | 98 |
| Mast/stem cell growth factor receptor Kit, autoinhibited (KIT, Homo sapiens, UniProt P10721) | cell-free assay | 98 |
| Mitogen-activated protein kinase kinase kinase 1 (MAP3K1, Homo sapiens, UniProt Q13233) | cell-free assay | 90 |
| Wee1-like protein kinase 2 (WEE2, Homo sapiens, UniProt P0C1S8) | cell-free assay | 97 |
| Cyclin-dependent kinase 16 (CDK16, Homo sapiens, UniProt Q00536) | cell-free assay | 83 |
| Serine/threonine-protein kinase 32C (STK32C, Homo sapiens, UniProt Q86UX6) | cell-free assay | 100 |
| Death-associated protein kinase 2 (DAPK2, Homo sapiens, UniProt Q9UIK4) | cell-free assay | 100 |
| Receptor tyrosine-protein kinase erbB-2 (ERBB2, Homo sapiens, UniProt P04626) | cell-free assay | 100 |
| Mitogen-activated protein kinase kinase kinase kinase 5 (MAP4K5, Homo sapiens, UniProt Q9Y4K4) | cell-free assay | 100 |
| cAMP-dependent protein kinase catalytic subunit alpha (PRKACA, Homo sapiens, UniProt P17612) | cell-free assay | 100 |
| Epidermal growth factor receptor (EGFR, Homo sapiens, UniProt P00533, G719S) | cell-free assay | 100 |

Sample 3 — observed: enzyme activity; action: inhibitor; tested at: 0.5 µM; reference: control
SMILES: CCN(CC)CCNC(=O)c1c(C)[nH]c(/C=C2\C(=O)Nc3ccc(F)cc32)c1C
| target | remaining activity [%] |
| --- | --- |
| cAMP-dependent protein kinase catalytic subunit gamma (PRKACG, Homo sapiens, UniProt P22612) | 109 |
| Homeodomain-interacting protein kinase 4 (HIPK4, Homo sapiens, UniProt Q8NE63) | 74.7 |
| Dual specificity tyrosine-phosphorylation-regulated kinase 3 (DYRK3, Homo sapiens, UniProt O43781) | 58.2 |
| Phosphorylase b kinase gamma catalytic chain, skeletal muscle/heart isoform (PHKG1, Homo sapiens, UniProt Q16816) | 5.12 |
| Calcium/calmodulin-dependent protein kinase type II subunit beta (CAMK2B, Homo sapiens, UniProt Q13554) | 46.7 |
| Cyclin-dependent kinase 6, with cyclin D3 (CDK6, Homo sapiens, UniProt Q00534) | 59.7 |
| Testis-specific serine/threonine-protein kinase 2 (TSSK2, Homo sapiens, UniProt Q96PF2) | 72.9 |
| MAP kinase-activated protein kinase 3 (MAPKAPK3, Homo sapiens, UniProt Q16644) | 102 |
| Ephrin type-B receptor 1 (EPHB1, Homo sapiens, UniProt P54762) | 53.6 |
| Ephrin type-A receptor 4 (EPHA4, Homo sapiens, UniProt P54764) | 84.5 |
| Serine/threonine-protein kinase WNK3 (WNK3, Homo sapiens, UniProt Q9BYP7) | 94.3 |
| Serine/threonine-protein kinase 16 (STK16, Homo sapiens, UniProt O75716) | 55.7 |
| Tyrosine-protein kinase receptor UFO (AXL, Homo sapiens, UniProt P30530) | 27.4 |
| Tyrosine-protein kinase Blk (BLK, Homo sapiens, UniProt P51451) | 28.7 |
| Homeodomain-interacting protein kinase 2 (HIPK2, Homo sapiens, UniProt Q9H2X6) | 41.3 |
| Cyclin-dependent kinase 1, with cyclin B (CDK1, Homo sapiens, UniProt P06493) | 103 |
| Mitogen-activated protein kinase kinase kinase kinase 4 (MAP4K4, Homo sapiens, UniProt O95819) | 12.4 |

Mixed results
| Structure (SMILES) | assay | system | conditions | measurement | value |
| --- | --- | --- | --- | --- | --- |
| CC(C)C[C@@H]1NC(=O)[C@@H](C)NC(=O)[C@@H](CC(C)C)NC(=O)[C@@H](CC(C)C)NC(=O)[C@H](C(C)C)NC(=O)[C@H](CC(C)C)NC(=O)[C@@H](CC(C)C)NC1=O | PRP chromatography estimate | 1,9-decadiene/PBS | pH 7.4 | logD | 0.618 |

A few entries again (sample 3):
| target | remaining activity [%] |
| --- | --- |
| Phosphorylase b kinase gamma catalytic chain, skeletal muscle/heart isoform (PHKG1, Homo sapiens, UniProt Q16816) | 5.12 |
| Mitogen-activated protein kinase kinase kinase kinase 4 (MAP4K4, Homo sapiens, UniProt O95819) | 12.4 |
| Testis-specific serine/threonine-protein kinase 2 (TSSK2, Homo sapiens, UniProt Q96PF2) | 72.9 |
| Cyclin-dependent kinase 6, with cyclin D3 (CDK6, Homo sapiens, UniProt Q00534) | 59.7 |
| Tyrosine-protein kinase Blk (BLK, Homo sapiens, UniProt P51451) | 28.7 |
| Calcium/calmodulin-dependent protein kinase type II subunit beta (CAMK2B, Homo sapiens, UniProt Q13554) | 46.7 |
